Results of several laboratories.
A part holds a random share of what one study measured. Changes are numbered by the printed parent chain.

Block 1
Target: RNA binding protein fox-1 homolog 2, RRM domain, GST-SBP tag (RBFOX2, Homo sapiens, UniProt O43251-10, residues 100-194)
Method: RNA Bind-n-Seq
Molecule type: RNA
Sample: in vitro
Tested at: 365 nM
Notes: natural RNA segment, single round, ends assumed
Relative to: no-protein control
Direction: higher = stronger binding
Endpoint: RBNS enrichment (R)
Shared flanks, not repeated: GGGAGUUCUACAGUCCGACGAUC … UGGAAUUCUCGGGUGCCAA
Residues (chain): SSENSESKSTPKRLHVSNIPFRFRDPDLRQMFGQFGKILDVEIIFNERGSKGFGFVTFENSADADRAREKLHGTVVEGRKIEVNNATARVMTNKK
GGUUUUACUAUUAUGGUUUGAAGUGGAGUCUCAUGACCUCUCAGAAUAAGGUGUCACCUCCCUGAAAUUGCAUAUAUGUAUAUAGACAUGCACACGUGUGCAUUUGUUUG: 0.437
UGCUGCCUGGGCUUGCUCAGGUCCCCACUAAUAUUUUAAUGUGCCAAUGCCUGUGGAGAGUCUACAGGCCUAAGUGGCGGCCAUCUCAGUAAAGAUAUGGGCCAAGGAUA: 0.414
GCCUUCUUAGGCUCUGUCGUGUGACUUUUCAGAUUAUAAAUGCCACAGCACGUGCUGUUUGAGAAGACGUGUUUUUGUUCUUAGUCUGUGUAUACAGUUCUCAGGGGUGG: 0.667
UUCAAGCAAAUUAAAAACAAUAAGGUAGGAGGUAUUUCCCACGUCACCCCAAGGUGACCAGCCAUGGCCUGUCAUACUUAGGAGAGCAAGCUUUUUGCGGGUACAGAGCA: 0.571
UUUCUCUGUGUAGCCCUGGCUGUCCUGAAACUCACUCUGUAGAGCAGGCUGGCCUCGAACUUGGAUAUCCACCUGCCUCUCCCUCCCGAGUGCUGGGUUUAAAGGUAUGC: 0.184
ACCCAGUGAGGCCUUAUUCCUCCCUUCCCCCCAAAACUGACACCUUUGUUAGCCACCUCCCCACCCACAUACAUUUCUGCCAGUGUUCACAAUGACACUCAGCGGUCAUG: 0.543
GUUUUAAGCAUUUAAUAUAAAACAUUAUAACAUUAGUUUGUACUUUUUGCUAAUAGUUUGAGCACAAAUUGAAGCCCAGAAAUACUGAAAGCUUAUUAUUUUAUAUCCUU: 1.01
GAUUUAUAAACACAGUGCUCUGAAAGGAAUCUUACAGACUGUAUCAGUCUAGCUUUUAAUUAAGUUAUUUUGUAUAGCUUAAUUUGUAAAACAUUUUAUGUUUUUUAGAU: 0.458

Block 2
Target: CCND1, cyclin fold, Cln2 fusion (human)
Method: yeast growth competition, sequencing
Sample: yeast
Notes: weak parent motif
Relative to: not given
Direction: higher = stronger binding
Endpoint: normalised enrichment score
Starting sequence: WEE1 docking peptide (human); HKTFRKLRLFDTP; partner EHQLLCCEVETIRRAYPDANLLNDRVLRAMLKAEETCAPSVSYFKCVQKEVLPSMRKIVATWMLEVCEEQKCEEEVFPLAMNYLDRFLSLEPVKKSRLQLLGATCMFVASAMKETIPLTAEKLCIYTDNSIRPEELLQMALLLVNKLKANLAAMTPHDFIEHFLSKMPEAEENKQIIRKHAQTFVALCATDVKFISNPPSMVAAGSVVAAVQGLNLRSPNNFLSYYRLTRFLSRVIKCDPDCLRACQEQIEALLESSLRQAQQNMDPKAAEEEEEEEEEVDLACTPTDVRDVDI
P13V: 0.345
T3C: -0.0427
R5K: -0.142
R8M: 0.458
P13T: 0.516
R8V: 0.0895
T3W: 0.51
H1Q: -0.19
D11M: 0.22
F4G: 0.207
H1R: -1.16
L7N: -0.124
L7G: 0.257
D11L: 0.349
R5S: 0.0512
R5F: 0.0623
L9W: 0.437
K6L: -0.118
P13I: 0.0696
T3I: 0.628
P13Q: -0.403
P13G: -0.448
P13K: 0.264

Block 3
Target: Histone acetyltransferase KAT6A, winged helix 1, GST fusion (KAT6A, Homo sapiens, UniProt Q92794, residues 1-85)
Method: protein binding microarray
Molecule type: double-stranded DNA, one strand shown
Sample: in vitro
Tested at: not given
Notes: 8-mer, flanks averaged, mean of 2 arrays, mostly near background
Relative to: not given
Direction: higher = stronger binding
Endpoint: E-score
Residues (chain): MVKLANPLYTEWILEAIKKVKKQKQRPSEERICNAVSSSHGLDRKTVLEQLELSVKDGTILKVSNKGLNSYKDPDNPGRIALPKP
GATCATGC: -0.127
CCTGTCAA: -0.203
ACTGTGGG: -0.0681
CTCTAAAA: -0.0138
AATCGGAT: 0.00384
CCACAAAG: -0.191
AGTAGAGA: -0.119
AGTTTGGG: -0.168
CTCGTTTA: -0.101
GCACACAA: -0.189
ATCCGATC: 0.137
AGACGGTC: 0.0873
CAATGCTG: -0.0735
CTGCGTTC: -0.0728
ATCTACCC: -0.0487
TAGTCTGA: -0.187
GTCTTTCA: 0.0027
CACACGTC: -0.138
AGAGGCAG: -0.241
CATCATGC: 0.0877
AAACAACA: -0.231
GCCCGAAA: -0.0415
CGATCTTA: 0.0745

Block 4
Target: Interferon regulatory factor 3, full length, phosphomimetic (IRF3, Homo sapiens, UniProt Q14653, residues 1-427, S386D/S396D/S398D/S402D/T404D/S405D)
Sequence of UniProt Q14653 (whole entry, unmodified, looked up): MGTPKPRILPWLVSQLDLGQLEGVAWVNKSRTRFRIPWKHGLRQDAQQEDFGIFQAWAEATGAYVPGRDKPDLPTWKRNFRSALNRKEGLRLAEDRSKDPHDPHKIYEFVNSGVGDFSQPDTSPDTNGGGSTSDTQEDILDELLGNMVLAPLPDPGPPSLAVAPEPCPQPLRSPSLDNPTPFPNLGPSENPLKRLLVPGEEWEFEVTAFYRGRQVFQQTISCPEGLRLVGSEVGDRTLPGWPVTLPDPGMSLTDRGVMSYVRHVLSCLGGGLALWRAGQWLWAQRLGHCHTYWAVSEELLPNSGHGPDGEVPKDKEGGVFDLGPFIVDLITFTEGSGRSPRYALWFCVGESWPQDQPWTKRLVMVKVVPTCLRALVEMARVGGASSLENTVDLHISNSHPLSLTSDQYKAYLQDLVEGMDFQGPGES
Method: protein-binding microarray
Molecule type: double-stranded DNA, one strand shown
Sample: in vitro
Tested at: 2540 nM top
Notes: 60-bp whole probe
With: salmon DNA 0.4 mg/ml
Relative to: random background probes
Direction: higher = stronger binding
Endpoint: fitted relative affinity
Shared flanks, not repeated: GCCTAGCAC … GTCTTGATTCGCTTGACGCTGCTG
CAATATTAGAGTCTCAACCCGTGCTAG: 0.329 z-score
TCATTTATGTACTCTCTCACTGTGCTA: 0.96 z-score
TTAGATTTCTGTTCCGATTAGTGCTAG: 4.12 z-score
TCATATTTATAAATTATACTGTGCTAG: 0.794 z-score
GACGGTTCCGACTTTCGGGACGTGCTA: 2.64 z-score
GACCATCTCAGTCTCGAGACGTGCTAG: 1.61 z-score
TTAGGTTCCCTATTCCTTTAGTGCTAG: 4.21 z-score
GACGGTTTCGGGTTTTGGGACGTGCTA: 4.6 z-score
TTAGGTCTCGGTTTCGGGTAGTGCTAG: 3.73 z-score
GACTATTTCGGGACTGGAGACGTGCTA: 1.14 z-score
GACGGTTTCGGGTTACGGGACGTGCTA: 5.35 z-score
GACGATTTCAGCCTCGAGACGTGCTAG: 0.668 z-score
TCAGATTTTCCCATGAGACTGTGCTAG: 0.499 z-score
GACGCTCTCCTTATCCTGACGTGCTAG: 1.56 z-score
TTAGGTAGCCTACTGCTTTAGTGCTAG: -0.0842 z-score
GACGATTTCGGTTCCGAGACGTGCTAG: 5.82 z-score
GACGGTTTCCACTATCGGGACGTGCTA: 3.62 z-score
GACGGACTGAACACTGGGGACGTGCTA: -0.269 z-score
TTAGGGATCGGTTTCGGTTAGTGCTAG: 6.25 z-score

For quick reference, copied from above (block 3):
ACTGTGGG: -0.0681
CTCTAAAA: -0.0138
AATCGGAT: 0.00384
CCACAAAG: -0.191
AGTAGAGA: -0.119
